Published values gathered from unrelated publications.
Numbered parts are unrelated; each lists some results of a single study.
Chain of UniProt Q15139 (whole entry, looked up): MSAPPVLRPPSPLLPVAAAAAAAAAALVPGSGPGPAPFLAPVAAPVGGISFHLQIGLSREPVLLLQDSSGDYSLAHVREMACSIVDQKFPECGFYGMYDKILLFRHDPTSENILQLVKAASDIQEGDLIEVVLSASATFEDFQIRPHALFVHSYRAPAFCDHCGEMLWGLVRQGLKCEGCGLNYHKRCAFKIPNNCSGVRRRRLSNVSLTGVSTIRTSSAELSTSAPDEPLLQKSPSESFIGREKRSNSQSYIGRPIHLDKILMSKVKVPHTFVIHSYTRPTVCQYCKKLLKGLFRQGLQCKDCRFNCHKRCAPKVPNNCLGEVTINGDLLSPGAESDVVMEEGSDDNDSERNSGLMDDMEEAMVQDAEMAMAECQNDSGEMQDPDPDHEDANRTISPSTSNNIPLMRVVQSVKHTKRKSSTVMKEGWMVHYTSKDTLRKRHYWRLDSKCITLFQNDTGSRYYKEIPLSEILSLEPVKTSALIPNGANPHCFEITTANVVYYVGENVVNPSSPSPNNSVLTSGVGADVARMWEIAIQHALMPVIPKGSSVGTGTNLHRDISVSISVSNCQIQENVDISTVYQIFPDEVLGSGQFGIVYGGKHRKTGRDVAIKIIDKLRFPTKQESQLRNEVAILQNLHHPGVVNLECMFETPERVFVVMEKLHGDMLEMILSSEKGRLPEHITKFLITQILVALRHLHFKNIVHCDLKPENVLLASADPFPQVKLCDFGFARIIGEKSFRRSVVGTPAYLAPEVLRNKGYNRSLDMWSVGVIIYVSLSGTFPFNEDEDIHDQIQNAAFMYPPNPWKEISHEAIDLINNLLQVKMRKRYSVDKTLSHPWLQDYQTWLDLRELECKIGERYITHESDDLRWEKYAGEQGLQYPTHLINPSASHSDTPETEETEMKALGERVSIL

Series 1
Target: Hepatocyte nuclear factor 3-alpha (Foxa1, Mus musculus, UniProt P35582, residues 1-468, full length assumed)
Method: EMSA with sequencing
Form: double-stranded DNA, one strand shown
Sample: in vitro
Concentration: 10 and 20 nM
Notes: whole designed probe, mean of two concentrations, ends assumed
Reference: negative control set to 0
Reading: higher = stronger binding
Endpoint: normalised bound fraction
Constant ends, left off below: GTGAGCGGTGCCCATTGATGGGGAAC … TTTCACTGGGATCGTGGGGAC
Construct (chain): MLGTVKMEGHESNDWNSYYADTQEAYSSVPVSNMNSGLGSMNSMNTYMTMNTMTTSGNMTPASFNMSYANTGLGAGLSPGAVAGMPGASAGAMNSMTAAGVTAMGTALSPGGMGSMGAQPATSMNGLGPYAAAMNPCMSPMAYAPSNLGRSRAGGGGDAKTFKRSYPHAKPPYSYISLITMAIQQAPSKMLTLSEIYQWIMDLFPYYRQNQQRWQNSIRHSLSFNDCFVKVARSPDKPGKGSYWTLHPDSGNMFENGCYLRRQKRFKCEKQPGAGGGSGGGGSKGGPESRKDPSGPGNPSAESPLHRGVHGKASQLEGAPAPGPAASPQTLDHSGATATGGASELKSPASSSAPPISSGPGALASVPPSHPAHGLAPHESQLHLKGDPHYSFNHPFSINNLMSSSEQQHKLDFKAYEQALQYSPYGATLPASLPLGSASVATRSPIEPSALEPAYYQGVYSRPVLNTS
GCCTAAACTTTACTTCTCCCAAACCACTTTCTTCATGCATTCAAAACTGGACTTGTTCCACTAAGTCTGCATCTGGTACAGAGACTTCTTGATGTTTACTTAGGCAGTGGCCCATAAGAGTGCTCATTGAAACACCAATCATCATTCATTCATACTTCAATAAATAACTTGTATGGAGAAAAGAGGCTGGGCA: 0.455 ratio
AGGTGAATTGGCTGCTTCCATCCTGGCTTGGAACTTCAGACATAGAAGCCTTGGGACTTTCTCAGGACTTTCTCCAGATCTGTCACATGCTCAGCAAACAAGCATCTCCTGACTCATGCTGACCTTAGCCAGGGATGTTGGTGAAACTGTGTGTTGGTCTAGGTACCTAGCCCATGCTAGGTGCTCATCGAAT: 0.108 ratio
GGGGTGCCAGGCTAGGACACAGAAGCCAACAGGAATCCCCAAAGGGAGGAAGTGGAGTCGGGGGTGTGGCAGCCGTGCTGAGATGCTCGGCCTTTATTTACTCTGGGCAGGGACCAAGATAGGCCACTGCAGGCCGGCACCCTGCCTCCCGGCTGCTGGAGCCCCTCCCTCCCAGGAACTGCCAGCCAGGAAA: 0.38 ratio
CCCTCATCCTGGGTGTCGGGGTGGGAGGTGTTCTCATCATGAATGGGAGGCGTACCCAGATCCAGCTCTGGTGACTCACCACCAAACCAGAGTGTAAACAAATGGCTGTGTGTCACACCATAATCGACATAGCAAGATATGATACATGCCAGGAGAGAAAAAGAAAGTGCTGATGGAAAAATAATCTCATTAG: 0.365 ratio
CATGTACAAACAAAATATGGGATGTGTATTTTCAGTAATTCCATGTACAAGTTAAACACTCTGATATTTGCATTTAAAATGTCAATGCACATTGTAAACATGAATGCTAACAATCTTTTTTTTTTTTCCTGAGACGGAGTCTTGCTCTATCGCCCAGGCTGGAGTGCAGCGGCACAATCTCTGCTTACTGCCA: 0.393 ratio
TACTTCTTTCCTTTAACATATGGCATTTGCTTAACCTCTTGGAGAGTTGTGGTTTTCTGACCCTGGAGTTCTGATGGGAAAGATAATGAGAAGTGTTTACTTAGCATCTAGGCCAGCAAGCTAAGAAAAACATTGTGCCATGCTAGTATTGACAAGGTGACAGAGAGCCCACACTTGCCTCACATGTTGGCCA: 0.409 ratio
TTTTGCCTGTGATGTTAAAACTGATTAATGTGAAGAAAATGCAATGCTTTTATCCATCATGAGCTTTGAGGGGGGAAAAAAGTTTTAGAGAAAAGTAAACAAGTAAAAACAAAGGATTAAATAGGAAAATGAAGAGTGCTGGCCTAGCATTTAGGGCATTTGATATCCTGTGGACTTCTAATTAATTAAGCAG: 0.445 ratio
TCACGCAGAAATGCATTGGAATGTCAGGAAATTGTGTGTATTTGATGTATTTTACCTGTTGCCTAGAGAGCCCACACAGTGACGCAGGTGCCTGTTTACATTGGCTGATTGCCCGGACTTTGGAAATGCAATTATCCCCCACCACCCCCTCAGCCACTTTCTCCAGCGGACTAGGAGGGGCTGAGTGGTGCAG: 0.249 ratio

Series 2
Target: Interferon regulatory factor 7, full length, phosphomimetic (IRF7, Homo sapiens, UniProt Q92985, residues 1-503, S101K/S471D/S472D/S475D/S476D/S477D/S483D/S484D/S487D)
Method: protein-binding microarray
Form: double-stranded DNA, one strand shown
Sample: in vitro
Concentration: 250 nM
Notes: 60-bp whole probe
With: salmon DNA 0.4 mg/ml
Reference: random background probes
Reading: higher = stronger binding
Endpoint: log fluorescence
Constant ends, left off below: GCCTAGCAC … GTCTTGATTCGCTTGACGCTGCTG
Construct (chain): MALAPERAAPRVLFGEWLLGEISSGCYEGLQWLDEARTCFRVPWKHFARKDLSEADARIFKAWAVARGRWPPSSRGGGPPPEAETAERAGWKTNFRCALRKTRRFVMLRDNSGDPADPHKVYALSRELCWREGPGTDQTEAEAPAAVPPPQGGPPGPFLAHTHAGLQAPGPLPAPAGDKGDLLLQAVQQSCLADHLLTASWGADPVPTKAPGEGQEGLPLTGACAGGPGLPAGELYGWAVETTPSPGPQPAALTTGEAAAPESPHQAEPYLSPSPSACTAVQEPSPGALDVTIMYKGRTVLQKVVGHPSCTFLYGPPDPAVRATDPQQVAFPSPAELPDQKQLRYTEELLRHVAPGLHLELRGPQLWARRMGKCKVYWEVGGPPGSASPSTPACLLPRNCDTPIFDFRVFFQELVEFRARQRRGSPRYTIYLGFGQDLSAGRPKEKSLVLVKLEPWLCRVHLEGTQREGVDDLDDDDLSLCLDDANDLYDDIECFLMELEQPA
GTAGATTTCAGTCTCGATTAGTGCTAG: 1.41 z-score
AACGGACTGGACTTTCGGGACGTGCTA: -0.64 z-score
TGTCATTTTCTCTTATTCTAGTGCTAG: 1.12 z-score
GACGGTAACCTTATCCTGACGTGCTAG: -0.00882 z-score
TCAGTTTTCTCCATGGAACTGTGCTAG: 0.624 z-score
TCAGATCTGCCGTCCCACACTGTGCTA: 0.225 z-score
AGATTTTTCTCAACCGTTGTGTGCTAG: 0.189 z-score
TCATGTTGCAGACTCGAACTGTGCTAG: 0.573 z-score

Series 3
Target: RNA binding protein fox-1 homolog 2, RRM domain, GST-SBP tag (RBFOX2, Homo sapiens, UniProt O43251-10, residues 100-194)
Method: RNA Bind-n-Seq
Form: RNA
Sample: in vitro
Concentration: 365 nM
Notes: natural RNA segment, single round, ends assumed
Reference: no-protein control
Reading: higher = stronger binding
Endpoint: RBNS enrichment (R)
Constant ends, left off below: GGGAGUUCUACAGUCCGACGAUC … UGGAAUUCUCGGGUGCCAA
Residues (chain): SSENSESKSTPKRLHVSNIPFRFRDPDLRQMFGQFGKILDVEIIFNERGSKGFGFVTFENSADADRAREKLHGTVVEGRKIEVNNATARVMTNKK
GGCAACAGAGCUAGACUCUGUGUCAAAAAUAAAUGACUAGAUAAAAAAAAAAAUUGUUUGAGUACAUUUUCCCUGCAUUUUAGAGAUUAGGACAGUGGUCACUUUCUAGU: 0.509
AGUGAAAUGAAUAUACAUGUCUAUGGACUUAAUAUCAUGCCCAGAUAUGAAGACCUCGUUCAACUUUGCAUAACACGUAGAGGUAAUAGCUAGGUGAUAGACAUUUUCAA: 0.309
AAGAAUUGCACGUAUGAGAAACCUAUAUUUCAAUACUGCUGAAACAGACAUGAAAUAAAGAAUUUAAAGAAUGAUUUUGUUUGGUUUUAUUUUUCCCAACAUUUUAUUUU: 4.68
CUCCCUGCCCAGGUUGUCCCUGGAGGGCAGCCCUCACUCCCUUUGGGGGAGAGGCAGACAUUGCUGCCCACAGACCUGCCUCUGACUCAACUGUGUCCACCCUCCCUGGU: 0.303
UACGGCAGCUGGUGGAAUCUAUUGGGCAAAAAGUCCUGCAACCCUCUUACCUCCAGGCUUUGGUGCUUAACACAAAAUGACUGCAGAUGCCUCUCUGGAAGCCCUAGGCU: 0.616
UCAAAGGGCAGACAUUGCAGCCUUUUUAUAUUGCCUGCCAAAAUUUGAAGUAUUAGAACAAAGUGUGCCAUGAGAGAAAAACUUAACAAGGAGUUUUGAAAAGAAAUGCA: 11.1
UACCACCCGCCCUGGCUCCCCAGCUGCAGGUUGCACACCCUCAGCCUGAGAAUGUAAAAUAGGGCAGUGCCCAGCUGGGGAGGUAGAGGAAAGUGCUAGAGUACAUGGUC: 4.75
GCCGUUCAUCUUGUGUGUUUGUGACUUACUUUUGUAGCCUGUCAUCUUCUGGGCCCAGAGUCAGGGUCUCUGUGUCCCCUGUGCCUCCUGGGGACUGCUGCUGUCCUGCC: 0.537

Single results of other studies
Cc1cncc2cccc(S(=O)(=O)N3CCCN(C(=O)CN)C[C@@H]3C)c12 — remaining activity (Serine/threonine-protein kinase D1 (PRKD1, Homo sapiens, UniProt Q15139); enzyme activity, inhibitor; 0.5 µM; reference: control): 96.7%

Repeated from above (series 2):
TCAGATCTGCCGTCCCACACTGTGCTA: 0.225 z-score
AGATTTTTCTCAACCGTTGTGTGCTAG: 0.189 z-score
